Literature values, collected from citations in different studies.
Compare with care: the assays were run in different laboratories. ± gives the spread as reported.
Sequence of UniProt P28335 (whole entry, looked up): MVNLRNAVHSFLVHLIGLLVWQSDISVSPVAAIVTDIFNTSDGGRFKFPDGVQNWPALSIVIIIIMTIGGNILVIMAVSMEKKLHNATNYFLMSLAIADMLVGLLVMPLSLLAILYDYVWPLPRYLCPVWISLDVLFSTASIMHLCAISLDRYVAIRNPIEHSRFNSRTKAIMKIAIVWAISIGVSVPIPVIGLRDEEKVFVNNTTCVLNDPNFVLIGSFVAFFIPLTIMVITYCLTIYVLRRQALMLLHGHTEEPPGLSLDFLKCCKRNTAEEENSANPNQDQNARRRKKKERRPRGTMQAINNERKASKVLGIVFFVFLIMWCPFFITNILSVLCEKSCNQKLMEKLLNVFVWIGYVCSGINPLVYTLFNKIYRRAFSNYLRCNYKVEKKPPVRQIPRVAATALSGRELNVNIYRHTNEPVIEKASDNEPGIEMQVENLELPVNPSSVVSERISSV
Sequence of UniProt P04757 (whole entry, looked up): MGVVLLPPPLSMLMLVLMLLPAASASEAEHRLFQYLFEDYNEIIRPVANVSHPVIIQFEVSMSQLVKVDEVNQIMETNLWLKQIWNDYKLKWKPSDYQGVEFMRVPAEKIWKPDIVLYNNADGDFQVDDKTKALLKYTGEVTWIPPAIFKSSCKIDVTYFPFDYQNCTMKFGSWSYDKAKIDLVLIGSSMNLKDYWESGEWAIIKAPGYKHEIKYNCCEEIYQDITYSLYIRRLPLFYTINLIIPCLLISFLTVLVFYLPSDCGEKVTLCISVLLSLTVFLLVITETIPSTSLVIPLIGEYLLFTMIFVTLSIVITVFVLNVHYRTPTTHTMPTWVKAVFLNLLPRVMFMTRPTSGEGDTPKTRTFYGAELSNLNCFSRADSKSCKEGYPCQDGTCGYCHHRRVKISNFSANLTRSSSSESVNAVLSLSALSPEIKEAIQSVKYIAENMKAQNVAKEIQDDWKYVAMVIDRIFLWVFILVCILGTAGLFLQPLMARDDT
Sequence of UniProt G8XHD5 (whole entry, looked up): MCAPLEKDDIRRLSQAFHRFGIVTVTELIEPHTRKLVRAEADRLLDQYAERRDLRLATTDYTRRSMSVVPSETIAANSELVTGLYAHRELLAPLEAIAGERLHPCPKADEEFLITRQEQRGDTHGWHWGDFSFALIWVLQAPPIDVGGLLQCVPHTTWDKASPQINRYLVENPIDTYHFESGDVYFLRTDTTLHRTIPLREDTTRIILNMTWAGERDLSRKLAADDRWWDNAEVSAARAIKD
Sequence of UniProt P12392 (whole entry, looked up): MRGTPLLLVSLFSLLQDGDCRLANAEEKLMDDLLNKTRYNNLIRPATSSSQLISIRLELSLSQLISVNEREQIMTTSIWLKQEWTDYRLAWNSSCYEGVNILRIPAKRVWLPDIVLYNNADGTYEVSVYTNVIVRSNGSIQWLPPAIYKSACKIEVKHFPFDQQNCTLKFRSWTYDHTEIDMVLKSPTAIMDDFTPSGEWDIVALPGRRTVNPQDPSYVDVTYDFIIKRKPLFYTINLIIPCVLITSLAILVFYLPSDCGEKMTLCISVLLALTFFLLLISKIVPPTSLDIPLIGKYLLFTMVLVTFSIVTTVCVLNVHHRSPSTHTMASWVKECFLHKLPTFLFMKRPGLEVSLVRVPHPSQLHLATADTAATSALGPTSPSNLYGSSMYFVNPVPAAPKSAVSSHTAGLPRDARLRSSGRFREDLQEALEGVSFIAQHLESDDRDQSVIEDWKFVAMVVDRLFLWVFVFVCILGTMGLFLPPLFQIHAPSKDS

NCCc1c[nH]cn1
Kd (Abcam antibody): ~1 nM

CN/C(=N\S(=O)(=O)N1CCCCC1)N1CC(c2ccccc2)C(c2ccc(Cl)cc2)=N1 (centres unmarked)
Ki (CB1 receptor; binding): 58 nM

NCCCC[C@H](N)C(=O)O
Kd (L-lysine 4-chlorinase (besD, Streptantibioticus cattleyicolor, UniProt G8XHD5); equilibrium dialysis, HPLC; anaerobic, with: lysine): 43000 ± 3000 nM

NCC1C=Nc2nc(N)[nH]c(=O)c21 (centres unmarked)
Kd (class I type II riboswitch, Tte; single binding equivalent): 2.1 ± 0.3 nM

O=C(NN1CCCCC1)c1nn(-c2ccc(Cl)cc2Cl)c2c1CCc1cc(Cl)ccc1-2
Ki (CB1 receptor; binding): 14.8 nM

COc1cc(CC(C)N)c(OC)cc1I (racemic) [iodine-125 labelled]
Kd (5-hydroxytryptamine receptor 2C (HTR2C, Homo sapiens, UniProt P28335); radioligand binding; HEK293 cells): 0.9 nM

C[N+](C)(C)[C@@H](Cc1c[nH]c(=S)[nH]1)C(=O)[O-]
Ka (EgtU substrate-binding domain R454A; binding, isothermal titration calorimetry): 137000 ± 28000 M⁻¹

C[C@@H]1OC(=O)[C@H]2C[C@H]3CCCC[C@@H]3[C@@H](/C=C/[C@H]3CCC[C@H](C)N3C)[C@@H]12
Kd (muscarinic M2 receptor; antagonist): 4 nM

CN1CCc2[nH]c3ccccc3c2CC1
IC50 (Neuronal acetylcholine receptor; alpha3/beta4 (Rattus norvegicus, UniProt P04757+P12392); inhibitor; with: 100 µM acetylcholine): 70000 ± 5000 nM

O=C(O)CC(=O)C(=O)O
Kd (citrate synthase H262Q mutant; binding, fluorescence titration; 20 °C): 42000 nM

O=C(NN1CCCCC1)c1nc(-c2ccc(Cl)cc2Cl)c(-c2ccc(Cl)cc2)s1
Ki (CB2 receptor; binding): 5840 nM

C=C(C)[C@H]1CN[C@H](C(=O)O)[C@H]1CC(=O)O
Kd (KAR; binding, ligand binding): 16 nM

CCS(=O)(=O)n1c2c(c3cc(C(=O)N4CCC(C)CC4)ccc31)CN(CC1CC1)C2
Ki (CB2 receptor; binding): 6.3 nM

CCC(C)(c1ccc(O)cc1)c1ccc(O)cc1
Kd (estrogen receptor alpha; binding): 246 nM

A few entries again:
NCCc1c[nH]cn1
Kd (Abcam antibody): ~1 nM

C[C@@H]1OC(=O)[C@H]2C[C@H]3CCCC[C@@H]3[C@@H](/C=C/[C@H]3CCC[C@H](C)N3C)[C@@H]12
Kd (muscarinic M2 receptor; antagonist): 4 nM
